Measurements of several laboratories.
Protocols differ between the studies behind these lines. ± gives the spread as reported.
ACHE: Acetylcholinesterase (ACHE, Homo sapiens, UniProt P22303)
Sequence of UniProt P22303 (whole entry, looked up): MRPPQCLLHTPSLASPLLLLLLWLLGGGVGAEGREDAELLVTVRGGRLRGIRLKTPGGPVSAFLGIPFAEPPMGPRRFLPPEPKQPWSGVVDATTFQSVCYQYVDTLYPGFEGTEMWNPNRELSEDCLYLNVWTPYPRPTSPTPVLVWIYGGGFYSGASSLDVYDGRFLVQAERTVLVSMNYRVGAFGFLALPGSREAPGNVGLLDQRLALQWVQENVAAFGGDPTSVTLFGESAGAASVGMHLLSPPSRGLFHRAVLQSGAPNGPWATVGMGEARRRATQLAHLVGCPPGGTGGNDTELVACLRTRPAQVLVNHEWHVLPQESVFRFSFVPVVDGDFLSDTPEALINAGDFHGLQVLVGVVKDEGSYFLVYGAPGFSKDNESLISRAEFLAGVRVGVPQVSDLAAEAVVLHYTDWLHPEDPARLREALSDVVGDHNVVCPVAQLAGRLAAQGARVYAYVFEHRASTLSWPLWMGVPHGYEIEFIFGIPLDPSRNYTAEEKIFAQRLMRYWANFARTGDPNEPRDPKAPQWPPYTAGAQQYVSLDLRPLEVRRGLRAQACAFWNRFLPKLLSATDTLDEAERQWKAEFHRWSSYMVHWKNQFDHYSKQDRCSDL
PFF0160c E182D: Dihydroorotate dehydrogenase (quinone), mitochondrial (PFF0160c, Plasmodium falciparum, UniProt Q08210, E182D)
Sequence of UniProt O95870 (whole entry, looked up): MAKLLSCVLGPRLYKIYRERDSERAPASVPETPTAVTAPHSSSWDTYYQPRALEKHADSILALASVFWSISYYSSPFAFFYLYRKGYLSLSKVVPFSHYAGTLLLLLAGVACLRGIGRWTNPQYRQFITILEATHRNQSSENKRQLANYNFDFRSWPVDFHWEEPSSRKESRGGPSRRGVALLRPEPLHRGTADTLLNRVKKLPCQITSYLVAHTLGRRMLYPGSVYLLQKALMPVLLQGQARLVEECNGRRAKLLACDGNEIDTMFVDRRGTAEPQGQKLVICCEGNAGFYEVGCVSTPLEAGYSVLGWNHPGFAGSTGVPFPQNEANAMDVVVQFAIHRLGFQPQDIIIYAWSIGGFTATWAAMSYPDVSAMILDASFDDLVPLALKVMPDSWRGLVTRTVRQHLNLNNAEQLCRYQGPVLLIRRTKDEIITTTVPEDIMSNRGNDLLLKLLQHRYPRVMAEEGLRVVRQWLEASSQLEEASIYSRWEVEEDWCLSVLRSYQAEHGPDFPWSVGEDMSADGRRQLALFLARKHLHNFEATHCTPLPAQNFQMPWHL
Sequence of UniProt Q62351 (whole entry, looked up): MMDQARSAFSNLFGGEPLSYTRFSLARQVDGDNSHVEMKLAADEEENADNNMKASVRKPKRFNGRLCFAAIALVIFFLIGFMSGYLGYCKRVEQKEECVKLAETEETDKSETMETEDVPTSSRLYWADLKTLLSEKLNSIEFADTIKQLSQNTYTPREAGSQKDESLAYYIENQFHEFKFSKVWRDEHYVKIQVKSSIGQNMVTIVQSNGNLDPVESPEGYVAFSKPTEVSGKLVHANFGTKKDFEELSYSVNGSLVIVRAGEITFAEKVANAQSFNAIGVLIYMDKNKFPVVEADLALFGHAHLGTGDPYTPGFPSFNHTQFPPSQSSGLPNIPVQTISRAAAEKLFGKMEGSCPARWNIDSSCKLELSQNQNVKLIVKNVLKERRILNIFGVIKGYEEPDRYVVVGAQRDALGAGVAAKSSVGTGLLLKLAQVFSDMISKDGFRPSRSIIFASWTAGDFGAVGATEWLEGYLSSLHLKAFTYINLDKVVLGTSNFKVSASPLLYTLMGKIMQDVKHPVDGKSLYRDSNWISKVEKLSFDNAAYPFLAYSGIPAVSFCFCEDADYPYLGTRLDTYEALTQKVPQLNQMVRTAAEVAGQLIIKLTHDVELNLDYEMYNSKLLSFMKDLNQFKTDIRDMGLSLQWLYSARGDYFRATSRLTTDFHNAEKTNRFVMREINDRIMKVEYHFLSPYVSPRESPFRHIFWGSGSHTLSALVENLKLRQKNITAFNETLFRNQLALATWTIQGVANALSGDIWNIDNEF
Sequence of UniProt O42275 (whole entry, looked up): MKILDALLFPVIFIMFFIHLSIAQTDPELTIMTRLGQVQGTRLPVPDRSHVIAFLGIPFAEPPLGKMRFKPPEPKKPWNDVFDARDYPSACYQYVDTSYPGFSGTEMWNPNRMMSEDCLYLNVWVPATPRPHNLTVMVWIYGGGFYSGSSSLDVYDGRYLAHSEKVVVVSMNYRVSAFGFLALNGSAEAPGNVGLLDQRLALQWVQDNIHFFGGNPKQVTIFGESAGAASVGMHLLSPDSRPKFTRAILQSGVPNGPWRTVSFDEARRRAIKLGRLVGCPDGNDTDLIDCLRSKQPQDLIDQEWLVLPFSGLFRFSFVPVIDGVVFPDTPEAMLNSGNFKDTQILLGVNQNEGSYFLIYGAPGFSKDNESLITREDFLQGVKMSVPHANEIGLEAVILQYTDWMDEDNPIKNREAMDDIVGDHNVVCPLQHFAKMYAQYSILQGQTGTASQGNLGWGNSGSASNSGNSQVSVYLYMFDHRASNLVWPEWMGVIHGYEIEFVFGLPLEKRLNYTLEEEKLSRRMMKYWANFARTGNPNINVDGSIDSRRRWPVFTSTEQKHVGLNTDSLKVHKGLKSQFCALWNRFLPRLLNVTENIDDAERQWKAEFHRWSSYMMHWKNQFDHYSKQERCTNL
Sequence of UniProt Q9GZZ6 (whole entry, looked up): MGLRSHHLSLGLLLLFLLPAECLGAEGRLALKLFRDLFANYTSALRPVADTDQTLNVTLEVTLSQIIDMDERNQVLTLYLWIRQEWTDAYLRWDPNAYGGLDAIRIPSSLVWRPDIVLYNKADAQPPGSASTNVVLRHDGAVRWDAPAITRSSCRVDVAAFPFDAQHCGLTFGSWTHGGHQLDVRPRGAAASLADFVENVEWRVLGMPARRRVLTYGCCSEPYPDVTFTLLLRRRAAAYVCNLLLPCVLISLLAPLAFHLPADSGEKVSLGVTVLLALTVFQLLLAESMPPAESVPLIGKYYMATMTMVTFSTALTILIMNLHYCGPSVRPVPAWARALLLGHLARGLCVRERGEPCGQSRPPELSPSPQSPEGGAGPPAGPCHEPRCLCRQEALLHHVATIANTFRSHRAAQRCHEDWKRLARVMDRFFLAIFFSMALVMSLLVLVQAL
Sequence of UniProt P18089 (whole entry, looked up): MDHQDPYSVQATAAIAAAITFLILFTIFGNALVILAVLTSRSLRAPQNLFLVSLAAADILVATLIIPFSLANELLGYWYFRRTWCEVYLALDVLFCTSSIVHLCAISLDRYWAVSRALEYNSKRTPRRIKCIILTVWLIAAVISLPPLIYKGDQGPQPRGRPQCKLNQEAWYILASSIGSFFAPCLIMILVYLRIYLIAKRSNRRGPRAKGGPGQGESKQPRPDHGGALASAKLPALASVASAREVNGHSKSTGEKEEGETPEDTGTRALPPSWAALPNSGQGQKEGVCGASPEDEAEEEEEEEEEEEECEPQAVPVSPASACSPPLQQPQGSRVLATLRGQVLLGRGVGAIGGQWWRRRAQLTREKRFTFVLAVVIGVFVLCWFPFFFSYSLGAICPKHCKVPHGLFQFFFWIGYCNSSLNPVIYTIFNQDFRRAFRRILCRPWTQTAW
Sequence of UniProt P49116 (whole entry, looked up): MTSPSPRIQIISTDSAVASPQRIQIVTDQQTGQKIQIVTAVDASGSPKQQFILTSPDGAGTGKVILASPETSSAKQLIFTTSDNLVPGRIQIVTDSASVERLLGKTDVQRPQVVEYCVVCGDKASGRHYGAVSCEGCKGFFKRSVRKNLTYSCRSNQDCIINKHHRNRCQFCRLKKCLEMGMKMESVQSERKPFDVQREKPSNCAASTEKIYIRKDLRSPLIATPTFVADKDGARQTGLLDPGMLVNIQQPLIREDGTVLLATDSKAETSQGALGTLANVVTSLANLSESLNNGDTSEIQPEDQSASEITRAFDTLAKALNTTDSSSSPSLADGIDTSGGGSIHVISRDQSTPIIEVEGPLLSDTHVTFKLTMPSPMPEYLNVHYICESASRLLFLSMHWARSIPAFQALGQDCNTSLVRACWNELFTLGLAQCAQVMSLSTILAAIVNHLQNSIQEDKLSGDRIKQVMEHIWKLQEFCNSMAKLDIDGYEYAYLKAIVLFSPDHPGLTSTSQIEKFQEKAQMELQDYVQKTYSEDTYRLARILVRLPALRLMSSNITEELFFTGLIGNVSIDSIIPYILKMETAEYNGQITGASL
Sequence of UniProt Q13554 (whole entry, looked up): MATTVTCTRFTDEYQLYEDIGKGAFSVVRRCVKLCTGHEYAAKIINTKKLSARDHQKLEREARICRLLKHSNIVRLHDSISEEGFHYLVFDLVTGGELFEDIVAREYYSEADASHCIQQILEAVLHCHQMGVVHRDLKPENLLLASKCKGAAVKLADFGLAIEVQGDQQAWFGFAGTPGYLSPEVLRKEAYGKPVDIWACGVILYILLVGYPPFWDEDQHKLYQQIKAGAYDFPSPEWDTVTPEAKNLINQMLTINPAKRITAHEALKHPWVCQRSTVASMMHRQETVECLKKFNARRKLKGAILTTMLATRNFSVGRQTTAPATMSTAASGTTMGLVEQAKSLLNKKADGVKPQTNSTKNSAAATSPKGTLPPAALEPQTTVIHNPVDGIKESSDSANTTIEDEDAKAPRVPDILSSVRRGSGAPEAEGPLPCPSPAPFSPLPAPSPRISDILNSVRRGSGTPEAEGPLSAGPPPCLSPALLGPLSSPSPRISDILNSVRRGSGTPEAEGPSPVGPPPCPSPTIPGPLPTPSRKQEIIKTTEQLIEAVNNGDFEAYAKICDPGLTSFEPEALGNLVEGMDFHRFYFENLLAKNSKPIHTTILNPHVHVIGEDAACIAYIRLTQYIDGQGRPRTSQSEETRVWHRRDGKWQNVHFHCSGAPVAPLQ
Sequence of UniProt P00942 (whole entry, unmodified, looked up): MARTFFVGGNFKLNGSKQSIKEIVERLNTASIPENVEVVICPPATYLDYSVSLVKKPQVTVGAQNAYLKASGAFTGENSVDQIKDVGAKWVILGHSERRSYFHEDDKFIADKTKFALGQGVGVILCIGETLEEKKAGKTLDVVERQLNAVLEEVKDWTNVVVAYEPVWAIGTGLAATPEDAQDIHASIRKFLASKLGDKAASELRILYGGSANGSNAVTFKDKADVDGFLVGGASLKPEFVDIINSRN

C[N+]1(CCF)[C@@H]2CC[C@H]1C[C@@H](OC(=O)C(O)(c1ccccc1)c1ccccc1)C2 (some centres unmarked) — activity class (ACHE; biochemical; concentration not given): inactive
CCOC(=O)CC(SP(=O)(OC)OC)C(=O)OCC (centres unmarked) — remaining activity (uncharacterized protein (Anopheles coluzzii, UniProt A0A6E8VQK1); enzyme activity, inhibitor; Sf9 cell homogenate; 45.87 µM, 0.1667 h, added: α-naphthyl acetate substrate; relative to: no inhibitor): 2.26%
Cl.NCC(O)c1ccc(O)cc1 (racemic) — koff (Nuclear receptor subfamily 2 group C member 2, ligand-binding domain (Homo sapiens, UniProt P49116); SPR imaging; 600 nM): 4.92e-06 s⁻¹
CN1CCN(c2cc(-c3ccncc3)c(-c3ccc4ccccc4c3)nn2)CC1 — activation (ADRA2B (Homo sapiens, UniProt P18089); agonist, FLIPR; 12.5 µM): -0.7%
CC[C@@H]1/C=C/C=C/C[C@H](C)[C@H](O)[C@](C)(O)C(=O)[C@H](C)[C@@H](O)[C@H](C)C(=O)[C@H](C)[C@@H](O)[C@H](C)/C=C/C(=O)O[C@H]2[C@@H](C)[C@@H](CC1)O[C@@]1(CC[C@@H](C)[C@@H](C[C@H](C)O)O1)[C@@H]2C — maximum ATP hydrolysis reduction (ATP synthase (rhesus monkey); inhibitor; muscle membrane affinity column; concentration not given): ~60%
COc1ccc(N2C(=O)N(c3c(C)cccc3Cl)Cc3cnc(Nc4ccc(C5CCN(C)CC5)cc4OC)nc32)nc1 — inhibition (CAMK2B (Homo sapiens, UniProt Q13554); kinase activity; 0.5 µM): 1%
OC1Cc2ccccc2CC1N1CCC2(C=Cc3cc(F)ccc32)CC1 (racemic) — selectivity ratio (Vesicular acetylcholine transporter (Rattus norvegicus, UniProt Q62666); relative to: Ki sigma1 over Ki VAChT): 1.3
CCC(=O)O — Km (medium-chain acyl-CoA synthetase A461K; substrate): 3.4 ± 0.3 mM
O=C(O)COP(=O)(O)O — Ki ratio (TPI1 (Saccharomyces cerevisiae, UniProt P00942, Y208F); enzyme activity, competitive inhibitor, GPDH/NADH-coupled; pH 5.7, 25 °C, ionic strength 0.1 NaCl, added: glyceraldehyde 3-phosphate substrate; relative to: mutant over wild type): 7730
COc1ccccc1NC(=O)CSc1nc2cccnc2n1-c1ccccc1OC — IC50 ratio (PFF0160c E182D; enzyme activity, DCIP colorimetric; relative to: E182D mutant over wild type): 0.4
C[N+](C)(C)[C@@H](Cc1c[nH]c(=S)[nH]1)C(=O)[O-] — Ka (Ergothioneine transport permease/ergothioneine binding protein EgtU, substrate-binding domain (egtU, Helicobacter pylori, UniProt B5Z7I3); ITC; 30 °C, substrate-binding domain): 496000 ± 307000 M⁻¹
CCN1CCN(Cc2ccc(Nc3nc4ccc(Oc5ccnc(NC(=O)C6CCN(C)CC6)c5)cc4n3C)cc2C(F)(F)F)CC1 — kinase activity (Protein kinase 6 (Plasmodium falciparum, UniProt Q8IDW1); inhibitor, radiometric, item: autophosphorylation and MBP phosphorylation; concentration not given): inhibited
C[C@@H](NCCCc1cccc(C(F)(F)F)c1)c1cccc2ccccc12 — activity class (ACHE; biochemical; concentration not given): inactive
CC(=O)N[C@H](C(=O)N1C[C@H](O)C[C@H]1C(=O)NCc1ccc(-c2scnc2C)cc1)C(C)(C)SCCCCCCNC(=O)C[C@@H]1N=C(c2ccc(Cl)cc2)c2c(sc(C)c2C)-n2c(C)nnc21 — −TΔS (Bromodomain-containing protein 2, BD1 (BRD2, Homo sapiens, UniProt P25440, K107A/Q101K/V106E); ITC; 25 °C, BD1 KEA mutant, binary): 5 ± 1 kcal/mol
C[C@H]1CN(c2n[nH]c3nc(N[C@H]4CC[C@H](NS(=O)(=O)CCC(F)(F)F)CC4)ncc23)CCO1 — relative abundance (CLK2 (Homo sapiens, UniProt P49760); inhibitor, Kinobeads competition profiling; 0.8 µM; relative to: vehicle): 1.28
Cl.Cl.O=c1cc(NCCCNCc2sc(Br)c(Br)c2Br)[nH]c2ccccc12 — IC50 ratio (PFF0160c E182D; enzyme activity, DCIP colorimetric; relative to: E182D mutant over wild type): 4.1
CC[C@H](C)[C@H](NC(=O)CNC(=O)[C@@H](N)CCCCN)C(=O)N[C@@H](CC(C)C)C(=O)N[C@@H](CCCCN)C(=O)N[C@@H](CCCNC(=N)N)C(=O)N[C@@H](CCC(=O)O)C(=O)N[C@@H](CCCCN)C(=O)N[C@@H](CCCNC(=N)N)C(=O)N[C@@H](CC(C)C)C(=O)N[C@@H](CCCNC(=N)N)C(=O)N[C@@H](CCCNC(=N)N)C(=O)N[C@@H](CCCCN)C(=O)N[C@@H](CC(N)=O)C(=O)N[C@H](C(=O)N[C@@H](Cc1c[nH]cn1)C(=O)N[C@@H](Cc1c[nH]c2ccccc12)C(=O)N1CCC[C@H]1C(=O)N[C@@H](CCC(=O)O)C(=O)N[C@@H](CCC(=O)O)C(=O)NCC(=O)N[C@@H](CCCCN)C(=O)N[C@@H](CC(C)C)C(=O)N[C@@H](CCCNC(=N)N)C(=O)N[C@@H](CCC(=O)O)C(=O)N[C@@H](Cc1ccccc1)C(=O)N[C@@H](Cc1ccccc1)C(=O)N[C@@H](Cc1ccccc1)C(=O)N[C@@H](Cc1ccccc1)C(=O)N[C@@H](CCC(=O)O)C(=O)N[C@@H](CC(C)C)C(=O)N[C@@H](CC(=O)O)C(=O)N[C@@H](CCC(=O)O)C(=O)N[C@@H](C)C(=O)N[C@@H](CCC(=O)O)C(=O)N[C@@H](CCCNC(=N)N)C(=O)N[C@H](C(=O)N[C@@H](CC(N)=O)C(=O)N[C@H](C(=O)O)C(C)C)C(C)C)C(C)C — log2 fold change (protein phosphatase 1 complexes; bead binding, competitive inhibitor, inhibitor bead pulldown LC-MS/MS, item: RPAP3; HeLa and HEK293T cells, cell lysate; concentration not given; relative to: compound over control): -6.83
COc1ccc2c3c([nH]c2c1)CCN(C)CC3.O=C(O)/C=C/C(=O)O — Hill coefficient (Neuronal acetylcholine receptor; alpha9/alpha10 (Homo sapiens, UniProt Q9GZZ6+Q9UGM1); ion current, inhibitor, two-electrode voltage clamp; Xenopus laevis oocytes; added: 6 µM acetylcholine): 2.2 ± 0.2
Cc1nc(Nc2ccc(C)c(Cl)c2)c2c(C)noc2n1 — IC50 ratio (PFF0160c E182D; enzyme activity, DCIP colorimetric; relative to: E182D mutant over wild type): 9.8
CC(=O)c1cnc2ccc(-c3cc(Cl)c(O)c(Cl)c3)nc2c1N[C@H]1CC[C@H](CN(C)C)CC1 — fold change of KD (Receptor-like kinase TMK4 (TMK4, Arabidopsis thaliana, UniProt Q9LK43); binding, SPR; concentration not given; relative to: FER): 38.3
c1ccc2c3c(ccc2c1)-c1cccc2cccc-3c12 — fold change (Aryl hydrocarbon receptor (Danio rerio, UniProt Q9YGV3); reporter gene, agonist, luciferase reporter; ZF-4; 370.37 µM; relative to: vehicle control): 16.6
O=c1c2ccccc2oc2cc(OCCCCc3ccccc3)ccc12 — reaction velocity (ache (Electrophorus electricus, UniProt O42275); enzyme activity; 0.73 µM, added: substrate 6.90 mM; higher = faster reaction): 0.0033 a.u.
COc1cc(Nc2ncc(F)c(Nc3ccc4c(n3)NC(=O)C(C)(C)O4)n2)cc(OC)c1OC — inhibition (COQ8B (Homo sapiens, UniProt Q96D53); binding, KINOMEscan; 10 µM, ADCK4 kinase): 100%
[2H]c1c([2H])c([C@]2([2H])CCCN2C(=O)C(C)(C)Oc2ccc3cn[nH]c3c2)c([2H])c([2H])c1C([2H])([2H])[2H] — remaining binding (STK24 (Homo sapiens, UniProt Q9Y6E0); KINOMEscan; 1 µM; relative to: DMSO control): 88%
CC[C@@H](C)[C@@H](NC(=O)[C@@H](Cc1ccc(O)cc1)NC(=O)[C@H]1CCCN1C(=O)[C@@H](CCCNC(=N)N)NC(=O)[C@H](N)Cc1c[nH]cn1)C(=O)N[C@H](C)C(=O)N[C@H](Cc1c[nH]cn1)C(=O)N[C@H](CCCNC(=N)N)C(=O)N[C@H](CCCCNC(=O)c1cccc(S(=O)(=O)F)c1)C(=O)N[C@H](Cc1ccc(O)cc1)C(=O)N[C@H](CO)C(=O)N[C@H](Cc1ccccc1)C(N)=O — surface TFRC expression (Transferrin receptor protein 1 (Tfrc, Mus musculus, UniProt Q62351); flow cytometry; DC2.4; 24 h, pH 6, replicate 2, unit not given; relative to: 0 h): 0.471
O=C(c1ccc(Cl)cc1)N1CCN2C(=O)N(OC(=O)N3CCOc4ccccc43)C(=O)C2C1 (centres unmarked) — median ratio (Phosphatidylserine lipase ABHD16A (Homo sapiens, UniProt O95870); enzyme activity, inhibitor, MS-based ABPP; SW-620 in situ; 10 µM, 2 h, 37 °C; relative to: compound over DMSO, lower = stronger inhibition): 1.17

A few entries again:
C[N+]1(CCF)[C@@H]2CC[C@H]1C[C@@H](OC(=O)C(O)(c1ccccc1)c1ccccc1)C2 (some centres unmarked) — activity class (ACHE; biochemical; concentration not given): inactive
CCOC(=O)CC(SP(=O)(OC)OC)C(=O)OCC (centres unmarked) — remaining activity (uncharacterized protein (Anopheles coluzzii, UniProt A0A6E8VQK1); enzyme activity, inhibitor; Sf9 cell homogenate; 45.87 µM, 0.1667 h, added: α-naphthyl acetate substrate; relative to: no inhibitor): 2.26%
Cl.NCC(O)c1ccc(O)cc1 (racemic) — koff (Nuclear receptor subfamily 2 group C member 2, ligand-binding domain (Homo sapiens, UniProt P49116); SPR imaging; 600 nM): 4.92e-06 s⁻¹
CN1CCN(c2cc(-c3ccncc3)c(-c3ccc4ccccc4c3)nn2)CC1 — activation (ADRA2B (Homo sapiens, UniProt P18089); agonist, FLIPR; 12.5 µM): -0.7%
